# Published values from different studies.
# Compare with care: the assays were run in different laboratories. “And” joins repeats or separate records; there may be more than shown. ± gives the spread as reported.
# GLP1R: Glucagon-like peptide 1 receptor (GLP1R, Homo sapiens, UniProt P43220)
# UniProt Q16774, sequence (whole entry, looked up): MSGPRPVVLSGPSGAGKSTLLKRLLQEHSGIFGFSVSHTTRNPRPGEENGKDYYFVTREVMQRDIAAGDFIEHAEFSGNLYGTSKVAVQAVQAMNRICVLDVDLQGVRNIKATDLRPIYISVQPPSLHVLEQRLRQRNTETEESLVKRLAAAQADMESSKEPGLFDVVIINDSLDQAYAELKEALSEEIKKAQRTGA
# UniProt O76090, sequence (whole entry, unmodified, looked up): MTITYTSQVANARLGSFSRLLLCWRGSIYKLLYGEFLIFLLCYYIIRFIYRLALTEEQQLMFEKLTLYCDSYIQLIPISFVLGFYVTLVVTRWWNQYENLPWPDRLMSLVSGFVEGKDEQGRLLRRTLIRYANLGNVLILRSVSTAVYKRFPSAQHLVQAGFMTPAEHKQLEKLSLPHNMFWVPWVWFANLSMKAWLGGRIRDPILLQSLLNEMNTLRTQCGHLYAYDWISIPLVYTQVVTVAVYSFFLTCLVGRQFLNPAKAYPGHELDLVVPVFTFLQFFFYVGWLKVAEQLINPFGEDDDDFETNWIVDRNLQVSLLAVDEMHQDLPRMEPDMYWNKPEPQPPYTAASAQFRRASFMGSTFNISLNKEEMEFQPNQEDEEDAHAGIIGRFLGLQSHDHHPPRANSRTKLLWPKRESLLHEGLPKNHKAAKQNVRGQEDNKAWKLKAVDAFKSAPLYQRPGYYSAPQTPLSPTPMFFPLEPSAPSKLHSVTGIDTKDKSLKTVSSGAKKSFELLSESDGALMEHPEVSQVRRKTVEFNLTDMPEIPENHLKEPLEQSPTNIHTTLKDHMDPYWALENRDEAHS
# UniProt O95551, sequence (whole entry, looked up): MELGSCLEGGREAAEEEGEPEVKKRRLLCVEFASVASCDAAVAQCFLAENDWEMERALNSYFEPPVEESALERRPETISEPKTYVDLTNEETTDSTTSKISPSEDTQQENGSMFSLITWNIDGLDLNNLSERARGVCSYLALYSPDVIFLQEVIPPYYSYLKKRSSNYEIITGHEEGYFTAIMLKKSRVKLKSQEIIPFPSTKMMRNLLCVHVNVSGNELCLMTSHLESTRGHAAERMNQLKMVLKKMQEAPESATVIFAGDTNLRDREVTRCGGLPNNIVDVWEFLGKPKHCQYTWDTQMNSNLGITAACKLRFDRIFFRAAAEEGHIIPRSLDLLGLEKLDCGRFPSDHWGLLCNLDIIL
# UniProt Q704Y3, sequence (whole entry, unmodified, looked up): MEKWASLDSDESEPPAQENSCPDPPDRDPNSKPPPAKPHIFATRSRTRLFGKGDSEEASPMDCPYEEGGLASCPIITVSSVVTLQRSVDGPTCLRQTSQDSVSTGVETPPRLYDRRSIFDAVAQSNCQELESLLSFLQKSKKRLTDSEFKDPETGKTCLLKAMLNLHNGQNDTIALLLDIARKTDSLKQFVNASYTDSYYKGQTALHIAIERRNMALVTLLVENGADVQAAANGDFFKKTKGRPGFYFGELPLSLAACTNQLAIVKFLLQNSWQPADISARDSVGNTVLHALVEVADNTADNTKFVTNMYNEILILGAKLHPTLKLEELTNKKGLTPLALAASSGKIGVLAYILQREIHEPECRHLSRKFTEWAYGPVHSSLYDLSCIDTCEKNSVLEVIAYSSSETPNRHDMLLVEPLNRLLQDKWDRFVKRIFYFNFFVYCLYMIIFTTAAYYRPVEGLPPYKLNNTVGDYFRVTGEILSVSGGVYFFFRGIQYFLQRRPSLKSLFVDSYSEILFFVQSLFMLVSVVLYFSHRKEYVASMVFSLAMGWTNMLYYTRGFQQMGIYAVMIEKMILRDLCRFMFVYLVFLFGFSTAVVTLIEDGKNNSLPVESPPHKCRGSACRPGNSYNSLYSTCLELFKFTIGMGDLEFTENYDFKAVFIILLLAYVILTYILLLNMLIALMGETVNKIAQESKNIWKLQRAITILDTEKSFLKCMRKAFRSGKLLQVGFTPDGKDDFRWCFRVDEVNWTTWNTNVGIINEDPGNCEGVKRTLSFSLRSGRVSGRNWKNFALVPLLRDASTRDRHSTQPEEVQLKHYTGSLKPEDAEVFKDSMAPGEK
# UniProt P11388, sequence (whole entry, looked up): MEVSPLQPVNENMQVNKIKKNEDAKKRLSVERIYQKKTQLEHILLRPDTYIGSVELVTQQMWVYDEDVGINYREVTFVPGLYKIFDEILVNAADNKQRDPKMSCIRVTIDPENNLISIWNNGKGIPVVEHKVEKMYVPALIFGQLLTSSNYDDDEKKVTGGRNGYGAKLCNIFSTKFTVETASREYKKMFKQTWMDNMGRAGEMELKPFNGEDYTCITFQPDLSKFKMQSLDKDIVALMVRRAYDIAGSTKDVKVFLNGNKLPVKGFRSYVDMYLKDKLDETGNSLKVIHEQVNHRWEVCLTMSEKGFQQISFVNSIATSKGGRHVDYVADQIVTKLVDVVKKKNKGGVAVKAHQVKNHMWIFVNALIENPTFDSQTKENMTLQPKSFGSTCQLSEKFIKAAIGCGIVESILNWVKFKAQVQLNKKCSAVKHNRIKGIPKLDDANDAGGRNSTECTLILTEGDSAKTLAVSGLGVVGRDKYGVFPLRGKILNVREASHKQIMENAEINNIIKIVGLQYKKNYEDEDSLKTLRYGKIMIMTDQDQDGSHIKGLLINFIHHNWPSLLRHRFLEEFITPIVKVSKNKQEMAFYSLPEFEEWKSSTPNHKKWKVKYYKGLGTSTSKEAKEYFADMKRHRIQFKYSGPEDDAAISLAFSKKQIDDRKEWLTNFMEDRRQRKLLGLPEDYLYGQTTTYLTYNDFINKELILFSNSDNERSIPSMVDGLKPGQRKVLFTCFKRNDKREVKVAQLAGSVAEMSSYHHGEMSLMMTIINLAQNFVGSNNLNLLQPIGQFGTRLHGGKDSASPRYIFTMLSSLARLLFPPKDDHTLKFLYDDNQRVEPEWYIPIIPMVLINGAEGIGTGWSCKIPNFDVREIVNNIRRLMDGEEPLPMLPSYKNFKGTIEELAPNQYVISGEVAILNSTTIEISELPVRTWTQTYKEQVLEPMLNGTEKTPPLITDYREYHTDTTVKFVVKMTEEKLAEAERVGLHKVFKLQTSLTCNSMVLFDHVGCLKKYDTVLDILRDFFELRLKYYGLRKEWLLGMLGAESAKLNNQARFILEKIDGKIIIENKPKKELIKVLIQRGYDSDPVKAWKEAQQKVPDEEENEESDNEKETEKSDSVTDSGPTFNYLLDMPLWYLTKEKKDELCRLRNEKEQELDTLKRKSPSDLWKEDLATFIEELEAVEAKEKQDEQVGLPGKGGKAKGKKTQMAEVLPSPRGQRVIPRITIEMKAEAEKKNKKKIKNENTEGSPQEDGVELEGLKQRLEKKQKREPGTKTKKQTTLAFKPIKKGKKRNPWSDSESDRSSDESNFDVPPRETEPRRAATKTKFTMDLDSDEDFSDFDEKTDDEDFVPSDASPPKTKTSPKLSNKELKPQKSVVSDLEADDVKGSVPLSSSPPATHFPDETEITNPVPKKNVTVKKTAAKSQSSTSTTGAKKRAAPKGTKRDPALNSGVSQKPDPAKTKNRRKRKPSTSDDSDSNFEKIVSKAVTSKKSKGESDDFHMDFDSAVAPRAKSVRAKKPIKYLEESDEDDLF
# UniProt P63079, sequence (whole entry, looked up): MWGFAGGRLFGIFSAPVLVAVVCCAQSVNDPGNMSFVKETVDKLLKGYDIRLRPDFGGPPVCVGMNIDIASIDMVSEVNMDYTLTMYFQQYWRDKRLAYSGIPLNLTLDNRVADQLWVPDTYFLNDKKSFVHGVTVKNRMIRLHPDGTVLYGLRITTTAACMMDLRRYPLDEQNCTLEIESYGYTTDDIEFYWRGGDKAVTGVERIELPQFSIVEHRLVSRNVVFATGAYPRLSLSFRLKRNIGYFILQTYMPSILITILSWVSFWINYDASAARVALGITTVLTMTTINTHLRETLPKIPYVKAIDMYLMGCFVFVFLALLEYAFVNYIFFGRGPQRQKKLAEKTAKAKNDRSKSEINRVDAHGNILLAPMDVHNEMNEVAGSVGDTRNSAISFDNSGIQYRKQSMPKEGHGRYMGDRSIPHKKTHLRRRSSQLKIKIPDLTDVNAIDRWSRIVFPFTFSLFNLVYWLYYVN
# UniProt P47775, sequence (whole entry, looked up): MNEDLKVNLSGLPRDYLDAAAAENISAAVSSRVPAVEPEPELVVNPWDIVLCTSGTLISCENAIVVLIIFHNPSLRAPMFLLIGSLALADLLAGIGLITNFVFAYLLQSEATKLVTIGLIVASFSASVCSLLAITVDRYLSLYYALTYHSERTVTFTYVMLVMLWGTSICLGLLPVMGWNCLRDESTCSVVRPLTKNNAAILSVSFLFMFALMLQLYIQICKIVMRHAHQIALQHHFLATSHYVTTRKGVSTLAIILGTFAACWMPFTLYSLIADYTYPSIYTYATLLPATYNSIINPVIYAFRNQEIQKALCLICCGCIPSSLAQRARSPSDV
# UniProt P50620, sequence (whole entry, looked up): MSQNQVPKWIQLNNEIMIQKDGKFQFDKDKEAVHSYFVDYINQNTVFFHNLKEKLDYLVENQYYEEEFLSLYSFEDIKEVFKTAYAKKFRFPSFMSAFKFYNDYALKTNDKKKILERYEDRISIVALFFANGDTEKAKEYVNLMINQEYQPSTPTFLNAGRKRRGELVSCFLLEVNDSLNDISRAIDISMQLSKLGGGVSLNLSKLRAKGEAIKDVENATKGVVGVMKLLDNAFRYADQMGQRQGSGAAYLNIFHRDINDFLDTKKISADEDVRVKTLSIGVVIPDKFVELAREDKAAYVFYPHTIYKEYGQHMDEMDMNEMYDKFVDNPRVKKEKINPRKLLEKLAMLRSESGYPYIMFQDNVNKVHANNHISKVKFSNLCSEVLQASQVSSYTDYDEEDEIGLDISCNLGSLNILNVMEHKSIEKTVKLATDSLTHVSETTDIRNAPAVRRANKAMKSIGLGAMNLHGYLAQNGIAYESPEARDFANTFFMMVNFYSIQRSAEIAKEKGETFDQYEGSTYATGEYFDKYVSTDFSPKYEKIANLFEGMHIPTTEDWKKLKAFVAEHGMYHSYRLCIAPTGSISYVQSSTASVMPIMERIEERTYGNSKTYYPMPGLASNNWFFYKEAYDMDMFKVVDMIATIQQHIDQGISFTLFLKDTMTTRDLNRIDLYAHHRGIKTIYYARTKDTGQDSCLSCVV
SMILES,target,assay,test system,setting,scale,quantity,result
CC[C@H](C)[C@H](NC(=O)[C@H](Cc1ccccc1)NC(=O)[C@H](CCC(=O)O)NC(=O)[C@H](CCCNC(=N)N)NC(=O)[C@H](C)NC(=O)[C@H](C)NC(=O)[C@H](CCC(N)=O)NC(=O)[C@H](CCC(=O)O)NC(=O)[C@H](CCC(=O)O)NC(=O)[C@H](CC(C)C)NC(=O)[C@H](Cc1ccc(O)cc1)NC(=O)[C@H](CO)NC(=O)[C@H](CO)NC(=O)[C@@H](NC(=O)[C@H](CC(=O)O)NC(=O)[C@H](CO)NC(=O)[C@@H](NC(=O)[C@H](Cc1ccccc1)NC(=O)[C@@H](NC(=O)CNC(=O)[C@H](CCC(=O)O)NC(=O)[C@H](C)NC(=O)CCc1cnc[nH]1)[C@@H](C)O)[C@@H](C)O)C(C)C)C(=O)N[C@@H](C)C(=O)N[C@@H](Cc1c[nH]c2ccccc12)C(=O)N[C@@H](CC(C)C)C(=O)N[C@H](C(=O)N[C@@H](CCCCNC(=O)COCCOCCNC(=O)COCCOCCNC(=O)CC[C@H](NC(=O)CCCCCCCCCCCCCCCCC(=O)O)C(=O)O)C(=O)NCC(=O)N[C@@H](CCCNC(=N)N)C(=O)N[C@@H](CCCCNc1c(NCCCCCN(O)C(=O)CCC(=O)NCCCCCN(O)C(=O)CCC(=O)NCCCCCN(O)C(C)=O)c(=O)c1=O)C(=O)NCC(=O)NCC(=O)N[C@@H](CO)C(=O)N[C@@H](CCCCNc1c(NCCCCCN(O)C(=O)CCC(=O)NCCCCCN(O)C(=O)CCC(=O)NCCCCCN(O)C(C)=O)c(=O)c1=O)C(=O)O)C(C)C,GLP1R,"agonist, CRE luciferase reporter",BHK cells,"metal-free DFO conjugate, added: 1% HSA",baseline: parent peptide,fold potency loss,1.9
Nc1nc2c(ncn2[C@H]2C[C@H](O)[C@@H](COP(=O)(O)OP(=O)(O)OP(=O)(O)O)O2)c(=O)[nH]1,"nrdE, with NrdF (Bacillus subtilis, UniProt P50620)","ADP reduction, allosteric activator",,"37 °C, added: Mn(III)2-Y• NrdF",,apparent Km,1.7 ± 0.2 µM
COc1cccc(-n2nc3c4cc(Cl)ccc4[nH]cc-3c2=O)c1,"Gamma-aminobutyric acid receptor subunit alpha-6/beta-3, with delta subunit (Gabra6/Gabrb3, Rattus norvegicus, UniProt P30191+P63079)","ion current, modulator, two-electrode voltage clamp",,"30 µM, α6β3δ receptor, added: GABA EC3-10",,efficacy,180 ± 8.7%
[N-]=[N+]=NCC(=O)N[C@H]1[C@H]([C@H](O)[C@H](O)CO)O[C@@](O[C@H]2[C@@H](O)[C@@H](CO)O[C@@H](Oc3ccc([N+](=O)[O-])cc3)[C@@H]2O)(C(=O)O)C[C@@H]1O,"Sialidase-2 (Homo sapiens, UniProt Q9Y3R4)",substrate,,"10 min, pH 5.0, 37 °C",,kcat,0.44 ± 0.04 s⁻¹
Cc1ncsc1-c1ccc(CNC(=O)[C@@H]2C[C@@H](O)CN2C(=O)[C@@H](NC(=O)C2(F)CC2)C(C)(C)C)c(OCCOCCOCCN2CCN(c3cc(-c4ccccc4O)nnc3N)CC2)c1,"SWI/SNF-related matrix-associated actin-dependent regulator of chromatin subfamily A member 4, bromodomain (SMARCA4, Homo sapiens, UniProt P51532)","ternary complex binding, TR-FRET competition",,added: VCB complex,,cooperativity factor alpha,13
Nc1nc2c(ncn2[C@@H]2O[C@H](COP(=O)(O)O)[C@@H](O)[C@H]2O)c(=O)[nH]1,"GUK1 (Homo sapiens, UniProt Q16774)","enzyme activity, NADH-coupled",,"1000 µM, added: KCl 10 mM",,reaction velocity,0.125 µM/s and 0.115 µM/s and 0.0967 µM/s
COc1cc(Nc2ncc3c(n2)-c2ccc(Cl)cc2C(c2c(F)cccc2OC)=NC3)ccc1C(=O)O,MET M1250T,"inhibitor, biochemical kinase",,1 µM,,remaining activity,104%
Oc1ccc(/C=C/c2cc(O)cc(O)c2)cc1,"O-methyltransferase (Sorghum bicolor, UniProt A0A1B6PFV1)",ITC,,"concentration not given, added: MET+",,binding stoichiometry,0.57 ± 0.005
CC[C@H](C)[C@@H]1NC(=O)[C@H](CCCNC(=N)N)NC(=O)[C@@H]2CCCN2C(=O)[C@H](Cc2ccccc2)NC(=O)[C@H]([C@@H](C)O)NC(=O)CNC(=O)[C@H](CC(C)C)NC(=O)[C@@H]2CCCN2C(=O)[C@H]([C@@H](C)O)NC(=O)[C@H](Cc2c[nH]c3ccccc23)NC(=O)[C@H](Cc2ccc(O)cc2)NC(=O)[C@H]([C@@H](C)CC)NC(=O)[C@H]([C@@H](C)O)NC(=O)[C@H]([C@@H](C)O)NC(=O)[C@@H](Cc2ccc(O)cc2)NC(=O)CSC[C@@H](C(N)=O)NC(=O)[C@H](CCCNC(=N)N)NC1=O,"Vacuolar protein sorting-associated protein 29 (VPS29, Homo sapiens, UniProt Q9UBQ0)","binding, ITC",,"25 °C, protein alone",,ΔG,-9.8 ± 0.08 kcal/mol
CC(C)C[C@@H](C=O)NC(=O)[C@H](CC(C)C)NC(=O)[C@H](CC(C)C)NC(=O)OCc1ccccc1,NanoBiT HiBiT/LgBiT luciferase,"inhibitor, HiBiT luminescence counterscreen",conditioned medium only,"5 µM, 24 h",baseline: vehicle,luminescence signal reduction,-1.32%
CCOC(=O)C1=C(CN2CCOCC2)NC(c2nccs2)=NC1c1ccc(F)cc1Br (stereo not drawn),"Capsid protein (C, Hepatitis B virus genotype D subtype ayw, UniProt P03146)",immunoblot,"HepG2 expressing HA-HBc, Hepatitis B virus","concentration not given, 3 days, non-toxic concentrations",,intracellular capsid protein level,decreased
O=C([O-])CN(CCN(CC(=O)[O-])Cc1cc(CCC(=O)NCCCCCC(=O)NCCCC[C@H](NC(=O)N[C@@H](CCC(=O)O)C(=O)O)C(=O)O)ccc1[O-])Cc1cc(CCC(=O)O)ccc1[O-].[68Ga+3].[OH3+],"FOLH1 (Homo sapiens, UniProt Q04609)","radioligand, saturation binding",LNCaP,"1 h, 37 °C, added: [99mTc]TcO-6",,Bmax,19.8 ± 2.4 pmol/mg
N#Cc1ccc(-c2ccc(Cn3cc(-c4ccc(-c5nc6cc(-c7ccccc7)ccn6c5Nc5ccc(C(=O)O)cc5)cc4)nn3)cc2)nc1,"TDP2 (Homo sapiens, UniProt O95551)",,,,baseline: TDP1 IC50 over TDP2 IC50,selectivity ratio,8
CC[C@H](C)[C@H](NC(=O)[C@H](Cc1ccccc1)NC(=O)[C@H](CCC(=O)O)NC(=O)[C@H](CCCNC(=N)N)NC(=O)[C@H](C)NC(=O)[C@H](C)NC(=O)[C@H](CCC(N)=O)NC(=O)[C@H](CCC(=O)O)NC(=O)[C@H](CCC(=O)O)NC(=O)[C@H](CC(C)C)NC(=O)[C@H](Cc1ccc(O)cc1)NC(=O)[C@H](CO)NC(=O)[C@H](CO)NC(=O)[C@@H](NC(=O)[C@H](CC(=O)O)NC(=O)[C@H](CO)NC(=O)[C@@H](NC(=O)[C@H](Cc1ccccc1)NC(=O)[C@@H](NC(=O)CNC(=O)[C@H](CCC(=O)O)NC(=O)[C@H](C)NC(=O)CCc1cnc[nH]1)[C@@H](C)O)[C@@H](C)O)C(C)C)C(=O)N[C@@H](C)C(=O)N[C@@H](Cc1c[nH]c2ccccc12)C(=O)N[C@@H](CC(C)C)C(=O)N[C@H](C(=O)N[C@@H](CCCCNC(=O)COCCOCCNC(=O)COCCOCCNC(=O)CC[C@H](NC(=O)CCCCCCCCCCCCCCCCC(=O)O)C(=O)O)C(=O)NCC(=O)N[C@@H](CCCNC(=N)N)C(=O)N[C@@H](CCCCNc1c(NCCCCCN(O)C(=O)CCC(=O)NCCCCCN(O)C(=O)CCC(=O)NCCCCCN(O)C(C)=O)c(=O)c1=O)C(=O)NCC(=O)NCC(=O)N[C@@H](CO)C(=O)N[C@@H](CCCCNc1c(NCCCCCN(O)C(=O)CCC(=O)NCCCCCN(O)C(=O)CCC(=O)NCCCCCN(O)C(C)=O)c(=O)c1=O)C(=O)NCC(=O)NCC(=O)N[C@@H](CO)C(=O)N[C@@H](CCCCNc1c(NCCCCCN(O)C(=O)CCC(=O)NCCCCCN(O)C(=O)CCC(=O)NCCCCCN(O)C(C)=O)c(=O)c1=O)C(=O)NCC(=O)NCC(=O)N[C@@H](CO)C(=O)N[C@@H](CCCCNc1c(NCCCCCN(O)C(=O)CCC(=O)NCCCCCN(O)C(=O)CCC(=O)NCCCCCN(O)C(C)=O)c(=O)c1=O)C(=O)O)C(C)C,GLP1R,"agonist, CRE luciferase reporter",BHK cells,"Zr-loaded DFO conjugate, added: 0% HSA",baseline: parent peptide,fold potency loss,6.3
C=C1CN(S(=O)(=O)c2ccc(C)cc2)CCCN(Cc2ccccc2)CCCN(S(=O)(=O)c2ccc(C)cc2)C1,CD4 signal peptide FLuc,,HEK293 reporter-transfected,"concentration not given, 1 h, unit not given, added: cycloheximide",baseline: mock,FLuc activity,1.29
CCCCCCCC/C=C\CCCCCCCC(=O)NCCc1ccc(O)c(O)c1,"Trpv1 (Mus musculus, UniProt Q704Y3, S513A)","ion current, agonist, whole-cell patch clamp",,,baseline: 3 mM 2-APB current,maximal open probability,0.56 ± 0.06
O=c1nc(SCc2cc(F)cc(C(F)(F)F)c2)nc(SCc2ccc3nc(OCCN4CCOCC4)ccc3c2)[nH]1,"TOP2A (Homo sapiens, UniProt P11388)",decatenation,,125 µM,,mean decatenated DNA,0%
COc1cc(-c2cncc3c2CN(C)Cc2cc(N4CCNCC4)ccc2-3)cc(OC)c1OC,"Abl2 (Mus musculus, UniProt Q4JIM5)",kinase activity,,"1 µM, mouse enzyme, added: ATP 10 µM",baseline: DMSO control,remaining activity,86%
CCN1CCC[C@H]1CNC(=O)c1c(O)c(Cl)cc(Cl)c1OC,"G-protein coupled receptor 12 (GPR12, Homo sapiens, UniProt P47775)","β-arrestin recruitment, TANGO luminescence, measured: GPR12",,concentration not given,baseline: basal luminescence,log2 fold change,-0.389
O=C(O)C1CCCNC1 (stereo not drawn),"SLC6A6 (Homo sapiens, UniProt P31641, Y138A)","binding, microscale thermophoresis",,"977 nM, room temperature, added: 50 nM labelled protein",higher = more binding,normalised MST signal,0.219
Nc1ccc(C(=O)O)cc1,"BEST1, with wild-type BEST1 (Homo sapiens, UniProt O76090, D302A)","ion current, whole-cell patch clamp",HEK293 co-expressing mutant and wild-type,"concentration not given, voltage 80 mV",,current density,17.1 pA/pF and 9.87 pA/pF and 28.1 pA/pF and 7.67 pA/pF and 17.2 pA/pF and 13.7 pA/pF

# A few entries again:
SMILES,target,assay,test system,setting,scale,quantity,result
[N-]=[N+]=NCC(=O)N[C@H]1[C@H]([C@H](O)[C@H](O)CO)O[C@@](O[C@H]2[C@@H](O)[C@@H](CO)O[C@@H](Oc3ccc([N+](=O)[O-])cc3)[C@@H]2O)(C(=O)O)C[C@@H]1O,"Sialidase-2 (Homo sapiens, UniProt Q9Y3R4)",substrate,,"10 min, pH 5.0, 37 °C",,kcat,0.44 ± 0.04 s⁻¹
Cc1ncsc1-c1ccc(CNC(=O)[C@@H]2C[C@@H](O)CN2C(=O)[C@@H](NC(=O)C2(F)CC2)C(C)(C)C)c(OCCOCCOCCN2CCN(c3cc(-c4ccccc4O)nnc3N)CC2)c1,"SWI/SNF-related matrix-associated actin-dependent regulator of chromatin subfamily A member 4, bromodomain (SMARCA4, Homo sapiens, UniProt P51532)","ternary complex binding, TR-FRET competition",,added: VCB complex,,cooperativity factor alpha,13
Nc1nc2c(ncn2[C@@H]2O[C@H](COP(=O)(O)O)[C@@H](O)[C@H]2O)c(=O)[nH]1,"GUK1 (Homo sapiens, UniProt Q16774)","enzyme activity, NADH-coupled",,"1000 µM, added: KCl 10 mM",,reaction velocity,0.125 µM/s and 0.115 µM/s and 0.0967 µM/s
